Experimental data collected from several papers.
Lines come from different studies, so protocols differ. ± marks the error that the study gave.

CCOC(=O)C1=C(CSC2=NCCS2)NC(=O)NC1c1ccc(C)cc1 (stereo not shown) — IC50 (nitric oxide scavenging): 144 µM
O=[N+]([O-])c1ccc2c(c1)C=[N+]1N3C(=[O+][Cu-2]1([Cl])[O]2)c1ccccc1NC3c1cc([N+](=O)[O-])ccc1O (stereo not shown) — IC50 (photosynthetic electron transport; Spinacia oleracea chloroplasts): 531 µM
CO[C@H]1CCN(Cc2c(C)cc(C)c3[nH]ccc23)[C@H](CO)C1 — IC50 (MAC formation, inhibitor, measured: MAC deposition; human whole blood 50%; added: zymosan): 24 ± 1 µM
Cl.[2H]C([2H])([2H])CC(=O)c1cnc(NC(=O)C2CC2)cc1Nc1cccc(-c2ncn(C([2H])([2H])[2H])n2)c1OC — IC50 (IFNα-induced STAT phosphorylation; human whole blood): 0.048 µg/mL
O=C1c2ccccc2NC(c2ccc(O)c(O)c2)N1/N=C/c1ccc(O)c(O)c1 (stereo not shown) — IC50 (photosynthetic electron transport; Spinacia oleracea chloroplasts): 857 µM
CC(C)c1ccc(N(C)c2ccc3c(c2)OCC[C@H]3CNc2cnccc2C(=O)O)cc1 — IC50 (organoid viability; colorectal carcinoma organoid; patient-derived organoid model): 0.149 µM
O=C(COC(=O)c1ccccc1Nc1cccc(C(F)(F)F)c1)Nc1cccc(C(F)(F)F)c1 — IC50 (nitric oxide scavenging, Griess; 30 min, 25 °C, added: sodium nitroprusside 5 mM): 477 ± 18 µM
CN1CC[C@@H](COc2cnc(C#N)cc2-c2ccn3nc(NC(=O)C4CC4)cc3c2)C1 — IC50 (TNF release; human whole blood; added: LPS): 0.73 µM
COc1cc([C@H](O)[C@H](O)CO)ccc1O — IC50 (DPPH radical scavenging): 24.2 ± 0.69 µg/mL
CCOC(=O)C1=C(CSC2=NCCS2)NC(=O)NC1c1ccccc1 (stereo not shown) — IC50 (nitric oxide scavenging): 247 µM
